Assay results pooled from the literature.
Compare with care: the assays were run in different laboratories.
Chain of UniProt Q6IQ55 (whole entry, looked up): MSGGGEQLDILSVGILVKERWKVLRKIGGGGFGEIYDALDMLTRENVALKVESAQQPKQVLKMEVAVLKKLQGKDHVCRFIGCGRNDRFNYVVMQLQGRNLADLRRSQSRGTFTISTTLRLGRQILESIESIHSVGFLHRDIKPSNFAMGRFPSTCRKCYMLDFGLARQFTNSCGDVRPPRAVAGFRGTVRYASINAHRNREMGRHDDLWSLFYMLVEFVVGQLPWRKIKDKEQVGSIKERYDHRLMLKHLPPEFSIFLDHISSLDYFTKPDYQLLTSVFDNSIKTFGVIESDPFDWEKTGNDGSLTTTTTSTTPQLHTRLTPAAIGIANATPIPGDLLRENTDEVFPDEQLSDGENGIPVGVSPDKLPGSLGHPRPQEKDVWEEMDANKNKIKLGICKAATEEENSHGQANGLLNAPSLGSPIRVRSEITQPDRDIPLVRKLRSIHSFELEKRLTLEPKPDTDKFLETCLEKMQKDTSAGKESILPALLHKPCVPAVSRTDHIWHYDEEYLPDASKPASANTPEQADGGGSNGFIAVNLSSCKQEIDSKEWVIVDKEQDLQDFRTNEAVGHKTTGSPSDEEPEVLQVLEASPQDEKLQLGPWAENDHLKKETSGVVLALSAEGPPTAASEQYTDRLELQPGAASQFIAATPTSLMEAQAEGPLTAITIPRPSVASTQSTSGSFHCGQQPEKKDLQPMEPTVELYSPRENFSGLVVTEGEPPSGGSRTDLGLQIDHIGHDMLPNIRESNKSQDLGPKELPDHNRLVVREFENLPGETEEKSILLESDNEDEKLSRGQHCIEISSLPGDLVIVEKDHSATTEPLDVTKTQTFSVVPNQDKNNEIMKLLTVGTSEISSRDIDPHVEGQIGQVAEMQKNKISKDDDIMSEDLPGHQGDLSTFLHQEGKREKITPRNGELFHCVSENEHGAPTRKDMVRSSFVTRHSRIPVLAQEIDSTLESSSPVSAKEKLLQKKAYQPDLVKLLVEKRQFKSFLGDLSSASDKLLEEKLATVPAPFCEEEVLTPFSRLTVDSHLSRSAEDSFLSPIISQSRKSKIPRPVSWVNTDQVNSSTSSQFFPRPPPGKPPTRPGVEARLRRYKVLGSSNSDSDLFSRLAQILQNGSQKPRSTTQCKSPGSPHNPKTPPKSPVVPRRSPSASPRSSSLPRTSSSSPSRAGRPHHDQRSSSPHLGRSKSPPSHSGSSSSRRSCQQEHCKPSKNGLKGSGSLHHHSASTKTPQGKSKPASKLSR
Chain of UniProt P29317 (whole entry, looked up): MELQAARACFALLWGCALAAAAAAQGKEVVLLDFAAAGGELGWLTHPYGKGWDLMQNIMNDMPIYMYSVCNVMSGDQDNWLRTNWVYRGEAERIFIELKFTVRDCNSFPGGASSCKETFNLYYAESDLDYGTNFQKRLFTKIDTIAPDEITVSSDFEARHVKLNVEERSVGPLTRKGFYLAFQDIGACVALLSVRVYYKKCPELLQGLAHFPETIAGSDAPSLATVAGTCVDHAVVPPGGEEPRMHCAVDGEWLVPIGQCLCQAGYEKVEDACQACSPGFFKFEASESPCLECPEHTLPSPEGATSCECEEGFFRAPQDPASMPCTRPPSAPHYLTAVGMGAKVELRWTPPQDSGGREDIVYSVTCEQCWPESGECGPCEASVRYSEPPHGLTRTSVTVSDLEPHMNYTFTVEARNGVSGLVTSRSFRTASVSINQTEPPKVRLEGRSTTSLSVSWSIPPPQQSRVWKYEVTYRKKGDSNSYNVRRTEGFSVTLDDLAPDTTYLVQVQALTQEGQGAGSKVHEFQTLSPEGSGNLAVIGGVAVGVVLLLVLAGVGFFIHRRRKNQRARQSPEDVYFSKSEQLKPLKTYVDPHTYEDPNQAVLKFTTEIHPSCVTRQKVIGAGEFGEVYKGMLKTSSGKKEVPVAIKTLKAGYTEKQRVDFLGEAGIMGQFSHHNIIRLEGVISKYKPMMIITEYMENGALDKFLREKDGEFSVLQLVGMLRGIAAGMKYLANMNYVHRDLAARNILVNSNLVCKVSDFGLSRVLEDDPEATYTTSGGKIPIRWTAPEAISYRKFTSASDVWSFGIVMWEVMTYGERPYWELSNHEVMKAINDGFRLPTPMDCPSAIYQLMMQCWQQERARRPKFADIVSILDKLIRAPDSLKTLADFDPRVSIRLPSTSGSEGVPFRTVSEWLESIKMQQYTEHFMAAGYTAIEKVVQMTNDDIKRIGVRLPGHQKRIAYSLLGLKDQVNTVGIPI
Chain of UniProt Q15418 (whole entry, looked up): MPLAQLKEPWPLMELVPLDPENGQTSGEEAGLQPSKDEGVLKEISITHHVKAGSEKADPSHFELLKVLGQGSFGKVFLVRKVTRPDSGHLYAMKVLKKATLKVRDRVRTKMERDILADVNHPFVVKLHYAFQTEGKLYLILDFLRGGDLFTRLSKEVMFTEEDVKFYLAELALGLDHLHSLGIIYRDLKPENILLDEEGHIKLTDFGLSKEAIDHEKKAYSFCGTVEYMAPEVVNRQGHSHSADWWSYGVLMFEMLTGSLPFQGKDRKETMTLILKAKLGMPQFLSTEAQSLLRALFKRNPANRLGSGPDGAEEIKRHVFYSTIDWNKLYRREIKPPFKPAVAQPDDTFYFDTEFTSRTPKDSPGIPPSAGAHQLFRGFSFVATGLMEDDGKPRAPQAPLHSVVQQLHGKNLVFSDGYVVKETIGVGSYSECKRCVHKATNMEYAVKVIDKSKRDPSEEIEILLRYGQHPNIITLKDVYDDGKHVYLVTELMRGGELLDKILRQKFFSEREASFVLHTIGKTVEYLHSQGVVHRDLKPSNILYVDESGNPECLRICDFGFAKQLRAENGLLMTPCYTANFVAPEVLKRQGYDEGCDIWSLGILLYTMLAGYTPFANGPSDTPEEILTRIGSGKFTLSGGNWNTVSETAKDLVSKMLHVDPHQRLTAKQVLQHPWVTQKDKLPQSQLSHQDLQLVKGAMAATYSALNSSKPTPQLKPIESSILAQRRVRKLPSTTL
Chain of UniProt Q00537 (whole entry, looked up): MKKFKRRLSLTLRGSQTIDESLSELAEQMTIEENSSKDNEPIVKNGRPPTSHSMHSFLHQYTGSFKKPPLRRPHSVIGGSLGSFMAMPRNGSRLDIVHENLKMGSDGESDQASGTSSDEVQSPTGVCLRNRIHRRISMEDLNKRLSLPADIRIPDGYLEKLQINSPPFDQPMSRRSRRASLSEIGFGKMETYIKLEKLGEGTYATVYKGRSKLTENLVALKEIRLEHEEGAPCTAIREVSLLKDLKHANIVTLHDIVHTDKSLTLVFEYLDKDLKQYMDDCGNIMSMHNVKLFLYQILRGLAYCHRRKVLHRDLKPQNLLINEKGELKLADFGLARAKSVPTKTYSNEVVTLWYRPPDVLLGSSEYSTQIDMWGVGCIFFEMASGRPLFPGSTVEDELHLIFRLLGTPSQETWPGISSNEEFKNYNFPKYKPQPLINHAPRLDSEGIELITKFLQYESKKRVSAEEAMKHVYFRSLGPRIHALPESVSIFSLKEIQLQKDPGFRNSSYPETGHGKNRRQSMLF

| SMILES | target or system | assay | system | setting | quantity | value |
| --- | --- | --- | --- | --- | --- | --- |
| NCc1cc2c(cc1F)C(=O)N(C1CCC(=O)NC1=O)C2 (stereo not shown) | – | – | male cynomolgus monkey, plasma | oral, 0.3 mg/kg, 30 min | concentration | 0.82 ng/mL |
| CCc1cc(-c2noc(-c3cc(OC)nc(C4CCCC4)c3)n2)cc(C)c1OC[C@@H](O)CO | – | – | Wistar rat, plasma | oral, 3 mg/kg, 6 h, single dose | concentration | 174 ng/mL |
| CC(C)(Nc1nc(-c2ccccn2)nc2ccccc12)c1ccccn1 | – | – | female BALB/c mouse, plasma | intravenous, 1 mg/kg, 2 h | concentration | 201 ng/mL |
| CCOC(=O)c1cc(Cl)cc(NC(=O)c2sc(Cl)cc2S(=O)(=O)N(C)c2ccc(OCC)c(OC)c2)c1 | – | – | male C57BL/6 mouse, brain | intraperitoneal, 10 mg/kg, 15 min | concentration | 10.3 ng/g |
| O=C1CC[C@H](N2Cc3cc(N4CCN(CC5CCN(c6ccc([C@@H]7c8ccc(O)cc8CC[C@@H]7c7ccccc7)cc6)CC5)CC4)ccc3C2=O)C(=O)N1 | – | – | female Sprague-Dawley rat, plasma | oral, 20 mg/kg, fed | Cmax | 1430 ng/mL |
| O=C1CCC(N2Cc3cc(CO)c(F)cc3C2=O)C(=O)N1 (stereo not shown) | – | – | male CD-1 mouse, plasma | intravenous, 1 mg/kg, 15 min | concentration | 286 ng/mL |
| COc1ccc2c(=O)n(C)c(-c3ccccc3)nc2c1 | – | – | male Sprague-Dawley rat, lung | oral, 30 mg/kg, 15 min | concentration | 1.39 ng/mL |
| CN(C)CC#Cc1ccc2[nH]c3c(c2c1)-c1nc(N)ncc1CCC3 | – | – | male CD-1 mouse, brain | intraperitoneal, 30 mg/kg, 1 h | concentration | 459 ng/g |
| COc1cc(-c2cncc3c2CN(C)Cc2cc(N4CCNCC4)ccc2-3)cc(OC)c1OC | RPS6KA1 (Homo sapiens, UniProt Q15418) | enzyme activity, inhibitor | – | 1 µM | remaining activity | 110% |
| Cc1noc(C)c1Cn1cc(N2C(=O)CN(Cc3cccc(O)c3)C2=O)cn1 | – | – | male Sprague-Dawley rat, plasma | oral, 100 mg/kg, 2 h | concentration | 50.5 ng/mL |
| Cc1cc([C@@H](C)Nc2ccccc2C(=O)O)c2nc(N3CCC(F)(F)CC3)c(C#N)c(=O)n2c1 | EPHA2 (Homo sapiens, UniProt P29317) | binding, competition with immobilised ligand | – | 10 µM | remaining binding | 100% |
| O=c1nc(N2CCN(CC3CCCCC3)CC2)sc2c([N+](=O)[O-])cc(C(F)(F)F)cc12 | – | – | CD-1 mouse, plasma | intravenous, 10 mg/kg, 2 h | concentration | 375 ng/mL |
| CCOC(=O)[C@@]12C[C@@H]1[C@@H](n1ccc3c(NC)nc(C#Cc4ccc(Cl)s4)nc31)[C@H](O)[C@@H]2O | – | – | male Sprague-Dawley rat, plasma | oral, 10 mg/kg, 30 min | concentration | 156 ng/mL |
| COc1cccc(-c2n[nH]c(SCc3ccccn3)n2)c1OC | – | – | male Sprague-Dawley rat, plasma | oral, 30 mg/kg, 24 h, single dose | concentration | 8 ng/mL |
| C=CC(=O)N1CCC(COCC(=O)N2CCN(c3nc(-c4cnc(N)nc4C(F)F)nc(N4CCOC[C@@H]4C)n3)CC2)CC1 | CDK17 (Homo sapiens, UniProt Q00537) | binding, competition with immobilised ligand | – | 1 µM | remaining binding | 100% |
| CNc1ncc2c(/C=C/C(=O)N3CCC(OC)CC3)nn(Cc3cccc(C(F)(F)F)c3)c2n1 | TTBK2 (Homo sapiens, UniProt Q6IQ55) | enzyme activity, inhibitor, radiometric | – | 1 µM | remaining activity | 105% |

For quick reference, copied from above:
| SMILES | target or system | assay | system | setting | quantity | value |
| --- | --- | --- | --- | --- | --- | --- |
| O=C1CC[C@H](N2Cc3cc(N4CCN(CC5CCN(c6ccc([C@@H]7c8ccc(O)cc8CC[C@@H]7c7ccccc7)cc6)CC5)CC4)ccc3C2=O)C(=O)N1 | – | – | female Sprague-Dawley rat, plasma | oral, 20 mg/kg, fed | Cmax | 1430 ng/mL |
| O=C1CCC(N2Cc3cc(CO)c(F)cc3C2=O)C(=O)N1 (stereo not shown) | – | – | male CD-1 mouse, plasma | intravenous, 1 mg/kg, 15 min | concentration | 286 ng/mL |
